Measurements pooled from the literature.
Every numbered part comes from another study and shows a few of its results, in no order. “And” joins repeats or separate records; there may be more than shown.
Chain of UniProt P61075 (whole entry, looked up): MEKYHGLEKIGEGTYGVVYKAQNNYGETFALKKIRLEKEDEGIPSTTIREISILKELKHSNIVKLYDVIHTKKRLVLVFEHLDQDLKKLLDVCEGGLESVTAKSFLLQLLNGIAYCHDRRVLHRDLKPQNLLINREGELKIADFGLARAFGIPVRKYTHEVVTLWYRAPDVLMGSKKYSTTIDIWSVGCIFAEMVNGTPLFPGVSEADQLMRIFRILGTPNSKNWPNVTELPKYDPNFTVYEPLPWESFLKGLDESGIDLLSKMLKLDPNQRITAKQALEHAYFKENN
Chain of UniProt O94804 (whole entry, looked up): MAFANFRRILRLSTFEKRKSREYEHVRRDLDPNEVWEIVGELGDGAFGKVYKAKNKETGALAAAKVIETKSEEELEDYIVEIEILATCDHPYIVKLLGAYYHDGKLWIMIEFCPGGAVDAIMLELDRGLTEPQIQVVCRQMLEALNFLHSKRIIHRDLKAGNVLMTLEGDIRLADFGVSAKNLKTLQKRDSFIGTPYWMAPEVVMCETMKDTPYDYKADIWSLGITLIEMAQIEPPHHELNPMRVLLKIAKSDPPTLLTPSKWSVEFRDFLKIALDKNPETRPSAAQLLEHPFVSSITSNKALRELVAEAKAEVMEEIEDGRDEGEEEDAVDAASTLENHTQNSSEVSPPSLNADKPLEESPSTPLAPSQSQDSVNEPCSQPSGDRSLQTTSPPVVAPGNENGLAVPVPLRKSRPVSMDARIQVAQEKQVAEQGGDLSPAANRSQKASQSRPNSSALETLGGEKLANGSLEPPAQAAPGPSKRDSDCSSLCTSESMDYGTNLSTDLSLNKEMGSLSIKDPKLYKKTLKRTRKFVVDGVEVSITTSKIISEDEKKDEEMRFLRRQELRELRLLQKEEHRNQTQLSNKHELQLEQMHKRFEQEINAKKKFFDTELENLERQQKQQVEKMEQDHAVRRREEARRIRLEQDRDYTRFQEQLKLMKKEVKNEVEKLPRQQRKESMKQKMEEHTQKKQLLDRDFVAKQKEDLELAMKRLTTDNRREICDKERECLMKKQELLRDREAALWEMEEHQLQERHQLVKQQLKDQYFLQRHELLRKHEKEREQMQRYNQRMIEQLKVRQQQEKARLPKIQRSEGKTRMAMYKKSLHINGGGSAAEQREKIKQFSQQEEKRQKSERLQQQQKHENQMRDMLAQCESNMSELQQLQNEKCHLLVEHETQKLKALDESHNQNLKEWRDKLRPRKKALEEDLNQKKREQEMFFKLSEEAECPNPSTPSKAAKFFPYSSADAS
Chain of UniProt P35626 (whole entry, looked up): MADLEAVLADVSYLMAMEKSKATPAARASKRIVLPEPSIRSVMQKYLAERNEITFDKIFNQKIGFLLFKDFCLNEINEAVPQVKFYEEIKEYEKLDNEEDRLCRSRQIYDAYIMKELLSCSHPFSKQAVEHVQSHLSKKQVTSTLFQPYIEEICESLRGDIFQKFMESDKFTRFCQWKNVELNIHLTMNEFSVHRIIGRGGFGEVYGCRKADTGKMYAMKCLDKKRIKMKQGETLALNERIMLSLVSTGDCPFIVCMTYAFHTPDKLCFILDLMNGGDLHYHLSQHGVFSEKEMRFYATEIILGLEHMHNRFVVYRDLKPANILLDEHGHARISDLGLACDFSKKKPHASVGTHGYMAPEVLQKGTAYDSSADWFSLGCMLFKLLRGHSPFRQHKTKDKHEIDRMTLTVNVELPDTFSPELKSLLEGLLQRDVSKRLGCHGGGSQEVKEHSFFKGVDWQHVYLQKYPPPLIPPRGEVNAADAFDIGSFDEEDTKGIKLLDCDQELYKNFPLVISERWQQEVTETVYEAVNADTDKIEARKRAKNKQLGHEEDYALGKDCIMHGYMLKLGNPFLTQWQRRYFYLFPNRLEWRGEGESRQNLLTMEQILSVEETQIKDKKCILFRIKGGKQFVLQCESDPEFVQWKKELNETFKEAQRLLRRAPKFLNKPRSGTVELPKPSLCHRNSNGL
Chain of UniProt P05771 (whole entry, looked up): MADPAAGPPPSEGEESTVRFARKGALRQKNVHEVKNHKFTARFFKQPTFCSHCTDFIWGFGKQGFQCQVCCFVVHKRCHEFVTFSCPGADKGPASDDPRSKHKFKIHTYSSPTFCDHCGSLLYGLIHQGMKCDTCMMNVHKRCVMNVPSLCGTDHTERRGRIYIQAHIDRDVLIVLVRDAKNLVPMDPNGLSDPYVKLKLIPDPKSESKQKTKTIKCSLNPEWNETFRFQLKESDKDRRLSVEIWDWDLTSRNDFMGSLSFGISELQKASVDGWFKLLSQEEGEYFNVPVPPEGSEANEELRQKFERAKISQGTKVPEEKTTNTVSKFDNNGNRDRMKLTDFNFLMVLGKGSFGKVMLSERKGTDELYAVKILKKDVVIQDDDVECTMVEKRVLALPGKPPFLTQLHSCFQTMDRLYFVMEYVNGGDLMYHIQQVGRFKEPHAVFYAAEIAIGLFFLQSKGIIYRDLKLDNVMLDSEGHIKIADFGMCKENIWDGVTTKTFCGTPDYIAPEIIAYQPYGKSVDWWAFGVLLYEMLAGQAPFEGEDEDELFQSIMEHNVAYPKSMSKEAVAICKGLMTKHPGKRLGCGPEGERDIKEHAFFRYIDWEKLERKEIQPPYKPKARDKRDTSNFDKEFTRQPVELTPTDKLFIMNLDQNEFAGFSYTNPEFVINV
Chain of UniProt Q9NRH2 (whole entry, looked up): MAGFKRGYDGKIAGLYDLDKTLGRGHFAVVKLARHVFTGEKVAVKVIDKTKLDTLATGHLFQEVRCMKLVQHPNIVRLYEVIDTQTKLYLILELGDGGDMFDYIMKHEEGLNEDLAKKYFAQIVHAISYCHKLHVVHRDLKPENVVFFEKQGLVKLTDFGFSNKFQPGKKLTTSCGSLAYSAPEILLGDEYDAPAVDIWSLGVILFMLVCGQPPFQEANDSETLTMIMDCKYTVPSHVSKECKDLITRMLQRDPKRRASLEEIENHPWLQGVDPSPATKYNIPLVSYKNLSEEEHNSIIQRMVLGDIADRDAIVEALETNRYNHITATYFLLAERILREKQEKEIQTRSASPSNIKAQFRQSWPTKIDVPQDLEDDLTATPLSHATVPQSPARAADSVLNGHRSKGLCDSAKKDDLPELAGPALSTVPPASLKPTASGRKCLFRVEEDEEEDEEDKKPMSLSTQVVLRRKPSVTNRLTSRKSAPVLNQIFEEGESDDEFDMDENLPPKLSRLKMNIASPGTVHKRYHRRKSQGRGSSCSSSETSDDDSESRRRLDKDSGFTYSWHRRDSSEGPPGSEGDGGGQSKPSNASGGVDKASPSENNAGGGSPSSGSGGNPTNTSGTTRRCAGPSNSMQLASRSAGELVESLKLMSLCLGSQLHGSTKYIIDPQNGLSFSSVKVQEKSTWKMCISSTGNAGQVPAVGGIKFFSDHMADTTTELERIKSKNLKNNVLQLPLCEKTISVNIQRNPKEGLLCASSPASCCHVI
Chain of UniProt P07948 (whole entry, looked up): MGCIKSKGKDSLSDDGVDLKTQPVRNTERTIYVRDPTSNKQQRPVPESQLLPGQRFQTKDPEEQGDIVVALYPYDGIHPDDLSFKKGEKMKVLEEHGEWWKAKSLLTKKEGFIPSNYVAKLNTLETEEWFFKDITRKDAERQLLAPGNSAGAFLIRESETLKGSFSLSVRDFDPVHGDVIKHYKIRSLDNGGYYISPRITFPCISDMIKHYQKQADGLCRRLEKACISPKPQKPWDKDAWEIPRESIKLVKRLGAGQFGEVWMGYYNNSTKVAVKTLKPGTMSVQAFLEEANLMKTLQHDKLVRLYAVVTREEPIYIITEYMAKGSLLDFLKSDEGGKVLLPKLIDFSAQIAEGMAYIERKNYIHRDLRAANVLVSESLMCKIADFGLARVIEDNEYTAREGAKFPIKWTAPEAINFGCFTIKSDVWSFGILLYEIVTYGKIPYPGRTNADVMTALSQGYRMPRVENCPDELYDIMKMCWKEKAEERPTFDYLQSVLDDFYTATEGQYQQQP

Set 1
Structure (SMILES): COc1ccc2c(c1)/C(=C/c1cnc[nH]1)C(=O)N2
Effect on: enzyme activity
Mode: inhibitor
Tested at: 0.5 µM
Reference: control
Measurement: remaining activity
target = Cyclin-dependent kinase 4, with cyclin D1 (CDK4, Homo sapiens, UniProt P11802); result = 33.7%
target = Protein kinase C beta type, isoform beta-I (PRKCB, Homo sapiens, UniProt P05771); result = 112%
target = cAMP-dependent protein kinase catalytic subunit alpha (PRKACA, Homo sapiens, UniProt P17612); result = 99.9%
target = Death-associated protein kinase 1 (DAPK1, Homo sapiens, UniProt P53355); result = 105%
target = Serine/threonine-protein kinase OSR1 (OXSR1, Homo sapiens, UniProt O95747); result = 97.3%
target = Inhibitor of nuclear factor kappa-B kinase subunit beta (IKBKB, Homo sapiens, UniProt O14920); result = 94.9%
target = Tyrosine-protein kinase Lyn, isoform B (LYN, Homo sapiens, UniProt P07948); result = 98.3%
target = STE20/SPS1-related proline-alanine-rich protein kinase (STK39, Homo sapiens, UniProt Q9UEW8); result = 86.1%
target = TGF-beta receptor type-1 (TGFBR1, Homo sapiens, UniProt P36897); result = 98.1%
target = Serine/threonine-protein kinase Chk2 (CHEK2, Homo sapiens, UniProt O96017); result = 77.9%
target = Protein kinase C alpha type (PRKCA, Homo sapiens, UniProt P17252); result = 91.3%
target = G protein-coupled receptor kinase 3 (GRK3, Homo sapiens, UniProt P35626); result = 101%
target = Mitogen-activated protein kinase kinase kinase 3 (MAP3K3, Homo sapiens, UniProt Q99759); result = 84.2%
target = Inhibitor of nuclear factor kappa-B kinase subunit epsilon (IKBKE, Homo sapiens, UniProt Q14164); result = 92.5%
target = Mitogen-activated protein kinase 9 (MAPK9, Homo sapiens, UniProt P45984); result = 101%
target = Serine/threonine-protein kinase 10 (STK10, Homo sapiens, UniProt O94804); result = 67%
target = cGMP-dependent protein kinase 1, isoform beta (PRKG1, Homo sapiens, UniProt Q13976); result = 91.7%
target = Calcium/calmodulin-dependent protein kinase type II subunit delta (CAMK2D, Homo sapiens, UniProt Q13557); result = 78.8%
target = Serine/threonine-protein kinase STK11 (STK11, Homo sapiens, UniProt Q15831); result = 51.7%
target = Calcium/calmodulin-dependent protein kinase kinase 2 (CAMKK2, Homo sapiens, UniProt Q96RR4); result = 89.5%
target = TGF-beta receptor type-2 (TGFBR2, Homo sapiens, UniProt P37173); result = 107%
target = Death-associated protein kinase 2 (DAPK2, Homo sapiens, UniProt Q9UIK4); result = 97.3%
target = Cyclin-dependent kinase 5, with p25 (CDK5, Homo sapiens, UniProt Q00535); result = 4.52%

Set 2
Host: human
Matrix: microsomes or S9
Tested at: 2 µM
Time: 0.5 h
Measurement: remaining compound
Structure (SMILES) = CNNC(=O)c1cc(Cl)cc(C)c1NC(=O)c1cc(Br)nn1-c1ncccc1Cl; result = 48.8%
Structure (SMILES) = COC(=O)C1(c2ccccc2)CCN(C(=O)CCn2cncn2)CC1; result = 75.7%
Structure (SMILES) = CSc1nc2ccccc2c(=O)n1-c1ccccc1; result = 49.6%

Set 3
Cell line: mouse MPNST tumor cells
Technique: high-content immunofluorescence imaging
Measured: nuclear SOX9
Tested at: 10 µM
Time: 12 h
Notes: mean of 2 replicates
Reference: DMSO control
Reading: higher = more nuclear SOX9
Measurement: nuclear SOX9 intensity
Compound = C=C1CC[C@@]2(O)[C@H]3Cc4ccc(O)c5c4[C@@]2(CCN3CC2CC2)[C@H]1O5; result = 103 % of DMSO and 82 % of DMSO
Compound = COc1cc(N)c(Cl)cc1C(=O)NC1CN2CCC1CC2 (centres unmarked); result = 101 % of DMSO
Compound = CN(Cc1cccc(-c2ccccc2)c1)C(=O)Oc1ccc(-c2ccc(C(N)=O)cc2)cc1; result = 101 % of DMSO
Compound = CCNC(=O)[C@H]1O[C@@H](n2cnc3c(N)ncnc32)[C@H](O)[C@@H]1O; result = 100 % of DMSO

Set 4
Effect on: AlphaScreen signal
Technique: AlphaScreen counter screen
Matrix: His6 peptide without bromodomain
Tested at: 50 µM
Notes: assay interference check
Measurement: inhibition
SMILES = CCn1cnc2c(Nc3cccc(Cl)c3)nc(N[C@@H]3CCCC[C@@H]3N)nc21; result = 41%
SMILES = O=C1Nc2ccccc2C1=Cc1c[nH]cn1; result = 16.4%
SMILES = COc1ccc(NC=C2C(=O)NC(=O)N(C)C2=O)cc1; result = 13.2%
SMILES = Cc1cccc(N2C(=O)NC(=O)C(=CNc3ccc(Cl)cc3)C2=O)c1; result = 6.05%
SMILES = COc1cccc(N2C(=O)NC(=O)C(=CNc3cccc(Cl)c3)C2=O)c1; result = 9.35%
SMILES = CN1C(=O)NC(=O)C(=CNc2ccc(Cl)cc2)C1=O; result = 6.55%
SMILES = C[C@@H]1C[C@H](C)C[C@H](C)[C@@H](O)CC(=O)O[C@H]([C@@H]2CCC[C@H]2C(=O)O)C/C=C/C=C(/C#N)[C@H](O)[C@@H](C)C1; result = -4.25%

Set 5
Target: Calcium/calmodulin-dependent protein kinase type II subunit alpha (CAMK2A, Homo sapiens, UniProt Q9UQM7)
Chain of UniProt Q9UQM7 (whole entry, looked up): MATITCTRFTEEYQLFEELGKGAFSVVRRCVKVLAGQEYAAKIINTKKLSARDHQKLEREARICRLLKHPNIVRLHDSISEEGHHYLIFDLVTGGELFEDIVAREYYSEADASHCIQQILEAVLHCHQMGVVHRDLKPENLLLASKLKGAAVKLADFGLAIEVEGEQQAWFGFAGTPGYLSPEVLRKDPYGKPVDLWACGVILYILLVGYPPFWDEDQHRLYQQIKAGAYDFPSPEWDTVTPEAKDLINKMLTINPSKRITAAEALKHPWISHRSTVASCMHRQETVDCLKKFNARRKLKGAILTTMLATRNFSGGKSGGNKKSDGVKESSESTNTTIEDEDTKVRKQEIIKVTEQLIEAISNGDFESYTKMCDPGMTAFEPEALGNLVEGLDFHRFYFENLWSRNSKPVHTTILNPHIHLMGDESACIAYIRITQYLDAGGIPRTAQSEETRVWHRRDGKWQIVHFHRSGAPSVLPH
Effect on: enzyme activity
Mode: inhibitor
Tested at: 10 µM
Measurement: inhibition
SMILES = C[C@H]1CC[C@@H]2[C@@H](C)[C@H]3[C@H](C[C@H]4[C@@H]5CC=C6C[C@@H](O[C@@H]7O[C@H](CO)[C@H](O)[C@H](O[C@@H]8O[C@H](CO)[C@@H](O)[C@H](O)[C@H]8O)[C@H]7O[C@@H]7O[C@@H](C)[C@H](O)[C@@H](O)[C@H]7O)CC[C@]6(C)[C@H]5CC[C@]34C)N2C1; result = 25%
SMILES = N[C@@H](Cn1oc(=O)[nH]c1=O)C(=O)O; result = -21%
SMILES = CN(C)[C@@H]1C(=O)C(C(N)=O)=C(O)[C@@]2(O)C(=O)C3=C(O)c4c(O)cccc4[C@@](C)(O)[C@H]3C[C@@H]12; result = 6%

Set 6
Compound: CC(C)n1cnc(-c2ccc(F)cc2)c1-c1ncc(C(=O)Nc2ccc(N3CCN(C)CC3)cc2)[nH]1
Technique: Phase 2a trial
Measured: influenza like illness
Host: idiopathic pulmonary fibrosis patients
Measurement: patients with adverse events
conditions = 60 mg once daily, grade 2 maximum intensity; result = 0%
conditions = 30 mg once daily, grade 1 maximum intensity; result = 0%
conditions = 60 mg once daily, grade 5 maximum intensity; result = 0%

Other studies, line by line
SMILES = O=C(NCc1ncc(C(F)(F)F)cc1Cl)c1ccc2c(c1)C1(CCS(=O)(=O)CC1)[C@@H](C1CC1)N2S(=O)(=O)c1ccc(F)cc1; target or system = SNF-related serine/threonine-protein kinase (SNRK, Homo sapiens, UniProt Q9NRH2); test = cell-free assay, competition with immobilised ligand; conditions = 1 µM; measurement = remaining binding; result = 96%
SMILES = CCc1ccccc1C(=O)Nc1n[nH]c2c(C)c(F)c(C3C(C#N)=C(C)N(C)C(C)=C3C#N)cc12; target or system = Calcium-dependent protein kinase 1 (CDPK1, Plasmodium falciparum, UniProt P62344); test = cell-free assay, competition with immobilised ligand; conditions = 1 µM; measurement = remaining binding; result = 100%
SMILES = COCCOc1nc(-c2ccc(Cl)nc2)nc2c1CN(C(=O)c1ncn3ccccc13)CC2; target or system = Cyclin-dependent kinase 2 homolog (CRK2, Plasmodium falciparum, UniProt P61075); test = cell-free assay, competition with immobilised ligand; conditions = 0.1 µM; measurement = remaining binding; result = 100%
SMILES = Cc1cc(NC(=O)c2cccc(S(F)(F)(F)(F)F)c2)cc(-n2ccn3nc(-c4cccnc4)cc23)c1; target or system = sample F normal colon organoid; test = CellTiter-Glo; conditions = 1 µM, 4 days; how to read = reference: DMSO; measurement = viability; result = 104%

For quick reference, copied from above (set 1):
target = Death-associated protein kinase 1 (DAPK1, Homo sapiens, UniProt P53355); result = 105%
target = Serine/threonine-protein kinase OSR1 (OXSR1, Homo sapiens, UniProt O95747); result = 97.3%
target = Inhibitor of nuclear factor kappa-B kinase subunit beta (IKBKB, Homo sapiens, UniProt O14920); result = 94.9%
target = Tyrosine-protein kinase Lyn, isoform B (LYN, Homo sapiens, UniProt P07948); result = 98.3%
target = STE20/SPS1-related proline-alanine-rich protein kinase (STK39, Homo sapiens, UniProt Q9UEW8); result = 86.1%
target = TGF-beta receptor type-1 (TGFBR1, Homo sapiens, UniProt P36897); result = 98.1%
